Measurements collected from several papers.
Parts stem from different laboratories: compare values within a part only. Changes are numbered by the printed parent chain.

Sample 1 — target: CCNA1, cyclin fold, Cln2 fusion (human); technique: yeast growth competition, sequencing; sample: yeast; setting: weak parent motif; relative to: not given; direction: higher = stronger binding; endpoint: normalised enrichment score
Starting sequence: INSM1 docking peptide (human); PKAIRKLHFEDEV; partner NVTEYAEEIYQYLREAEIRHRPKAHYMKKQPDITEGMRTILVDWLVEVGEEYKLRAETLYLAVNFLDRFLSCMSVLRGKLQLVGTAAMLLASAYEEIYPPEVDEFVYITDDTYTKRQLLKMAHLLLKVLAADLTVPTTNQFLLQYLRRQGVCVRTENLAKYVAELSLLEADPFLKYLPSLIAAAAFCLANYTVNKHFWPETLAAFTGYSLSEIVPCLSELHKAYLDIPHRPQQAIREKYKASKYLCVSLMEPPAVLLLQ
D11A: 0.765
D11V: 0.211
K2A: 0.272
R5F: -0.255
K2Q: 0.258
K6V: 0.0869
K6T: 0.16
K2R: 0.669
I4S: 0.644
H8D: 0.434
E10C: 0.408
R5Y: -0.0416
F9P: 0.29
I4Y: 0.586
H8I: 0.655
H8Y: 0.816

Sample 2 — technique: protein-binding microarray; form: double-stranded DNA, one strand shown; sample: in vitro; concentration: 250 nM; setting: 60-bp whole probe; added: salmon DNA 0.4 mg/ml; relative to: random background probes; direction: higher = stronger binding; endpoint: log fluorescence; all sequences stand within: GCCTAGCAC … GTCTTGATTCGCTTGACGCTGCTG
Target: Interferon regulatory factor 7, full length, phosphomimetic (IRF7, Homo sapiens, UniProt Q92985, residues 1-503, S101K/S471D/S472D/S475D/S476D/S477D/S483D/S484D/S487D)
Target sequence (chain): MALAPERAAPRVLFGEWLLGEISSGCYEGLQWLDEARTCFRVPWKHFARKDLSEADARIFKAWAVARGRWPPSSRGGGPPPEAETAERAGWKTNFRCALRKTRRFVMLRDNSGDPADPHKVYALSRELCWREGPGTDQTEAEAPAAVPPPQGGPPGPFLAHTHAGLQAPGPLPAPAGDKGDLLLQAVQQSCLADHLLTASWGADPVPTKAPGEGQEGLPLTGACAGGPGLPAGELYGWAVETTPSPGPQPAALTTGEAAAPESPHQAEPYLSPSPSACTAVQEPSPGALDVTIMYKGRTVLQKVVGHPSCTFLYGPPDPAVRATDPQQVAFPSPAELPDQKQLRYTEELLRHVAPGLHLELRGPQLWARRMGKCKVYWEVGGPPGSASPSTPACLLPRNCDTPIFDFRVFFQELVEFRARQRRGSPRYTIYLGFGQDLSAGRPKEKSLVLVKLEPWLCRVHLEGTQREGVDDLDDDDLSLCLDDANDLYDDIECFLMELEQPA
GACGGTTCCGGATTCGGGACGTGCTAG: 3.38 z-score
GACGCTCTCAGACTGGAGACGTGCTAG: -0.0324 z-score
TCAGTTTCGTATCTTCATTGTGTGCTA: 10.6 z-score
GAAGATTTCGGGACTGGAGACGTGCTA: -0.164 z-score
GACGGCCTGGGGACTGGGGACGTGCTA: -0.763 z-score
TCATTTTTCTGATCCATACTGTGCTAG: 1.45 z-score
GATGAACTGGGGTTTCGAGACGTGCTA: 1.93 z-score
TTAGATCTCACACTGGATTAGTGCTAG: -0.33 z-score
TTAGGTATCCTTTTCTTTTAGTGCTAG: 1.48 z-score
TTAGGTTTCGGGTCCGGTTAGTGCTAG: 7.13 z-score
TTGGGACTGGGTATCGGTTAGTGCTAG: 0.265 z-score

Sample 3 — technique: RNA Bind-n-Seq; form: RNA; sample: in vitro; concentration: 365 nM; relative to: no-protein control; direction: higher = stronger binding; endpoint: RBNS enrichment (R)
Target: RNA binding protein fox-1 homolog 2, RRM domain, GST-SBP tag (RBFOX2, Homo sapiens, UniProt O43251-10, residues 100-194)
Setting: natural RNA segment, single round, ends assumed
All sequences stand within: GGGAGUUCUACAGUCCGACGAUC … UGGAAUUCUCGGGUGCCAA
Target sequence (chain): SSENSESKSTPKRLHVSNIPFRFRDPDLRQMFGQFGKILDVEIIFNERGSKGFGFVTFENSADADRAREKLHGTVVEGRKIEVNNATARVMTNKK
GUGUCAGACUGUGCCUACUCUGAUGGUAUGUGCCAUUUGUAAAAUAAAAUAGAGCAGAAAAACACAAAAAGAGAACACUGGUUCAGACAUUCAGUGGGCAAGUAAAUUAU: 0.599
UCAACUGGCCAGGCAGGGUGGCUCACGCCUGUACUCCCAGCAUUUUGUGAGGCCAAGGUGGGUGGAUCACCUGAGGUCAGGAGUUUGAGACCAGCCUGACCAAACAUGGC: 3.65
AGGUGUUACCCAGAGAGGUGCCUCUGCUGUGCUUCCUGCCUCCAUCACUUUCCUAGGGCCUCCGUGAGGGCUGAGAACAGCUCUGCUCUGCUCCUGUAUUAUUAACUUGC: 0.485
ACUCAUUCCUUGUGUGUGUCUUGGAGUGCAUUUGACUCCAGGAAAAGCCAUUUUGGUUUUCCUUAACUAAAUGAUAAAUGUACCCCUCUCAGUCUGCAGUAUUGAGUUGU: 0.391
GGAUUUUUAGCUUUGAGGAAAAACCAUGACUUUUAACAAAUUUUUAUGGGUUAUAUGCCUAAACCCUUAUGCCACAUAGUGGUAAAUAAUUAUGAAAAAUGGUCUGUUCA: 0.941
ACCCACUAGGAUUUGUUUAGGUGCCCAUUGCAUCUUUUUGUGCUAUGGAGUUGUUUACAUUAAGCAUGACCGAACGAGAGACAAUACUAUUUCCCACAGGAGUCCAUUGG: 3.54
CUUCACAUUCAAAGACUGUCACCCAUGAACGUCAGACUUUGCAAAGGGGCUCUCUAAGCUGCACUGUUGUGGCUUUGUCUAAAAUUUUAAUGACGUUUCUGAGAACCAUG: 0.395
UGUGUUUUAUAUGCUCAUUUAAAAUGACUUUUCAGUGUUCUUCAGUUUAAAAUCUGUUGUUUGACUUUAAAAACAGCCUUUCACAACUUGUCCCAGGAGAACUGACCACA: 0.246

Further values, each from its own experiment
PhoQ, residues 284 288 289 292 302 303 GNNTDL — fold induction (PhoP, residues 12 14 15 18 19 VQALL (Escherichia coli, UniProt P23836); Sort-seq, refers to: YFP reporter; E. coli; PhoQ-PhoP variant library, added: 10 µM Mg2+; relative to: high Mg2+ state, higher = stronger signaling): 5.8

Excerpt of the above (sample 1):
E10C: 0.408
R5Y: -0.0416
